Assay results gathered from unrelated publications.
Each line is one published result; not all experiments were run side by side. ± marks the error that the study gave.
CYP2A6: Cytochrome P450 2A6 (CYP2A6, Homo sapiens, UniProt P11509)
uncharacterized protein: uncharacterized protein (Solanum lycopersicum, UniProt A0A3Q7EJP1)
Ubiquitin carboxyl-terminal hydrolase 39 ZnF-UBD domain: Ubiquitin carboxyl-terminal hydrolase 39, ZnF-UBD domain (Homo sapiens, UniProt Q53GS9)
Inositol-tetrakisphosphate 1-kinase: Inositol-tetrakisphosphate 1-kinase (Homo sapiens, UniProt Q13572)
USP20 ZnF-UBD domain: Ubiquitin carboxyl-terminal hydrolase 20, ZnF-UBD domain (USP20, Homo sapiens, UniProt Q9Y2K6)

| SMILES | target | test | system | conditions | scale | Kd |
| --- | --- | --- | --- | --- | --- | --- |
| O=c1ccc2ccccc2o1 | CYP2A6 | binding |  | 20 min, pH 7.4, purified protein, 2% DMSO |  | 4.11 µM |
| NS(=O)(=O)C(F)(F)F | Carbonic anhydrase 1 (CA1, Homo sapiens, UniProt P00915) | urea denaturation shift, Trp fluorescence |  | 10 µM, pH 6.0 |  | 0.184 µM |
| C=Cn1ccnc1 | CYP2A6 | binding |  | 20 min, pH 7.4, purified protein, 2% DMSO |  | 109 µM |
| Cc1cc2nc3c(=O)[nH]c(=O)nc-3n(C[C@H](O)[C@H](O)[C@H](O)COP(=O)(O)O)c2cc1C | NADH-dependent FMN reductase SfnF (sfnF, Pseudomonas fluorescens, UniProt Q3K9A2) | surface plasmon resonance |  |  | steady-state affinity | 0.756 µM |
| CCCCCCCCCCCCCCCC(=O)O | uncharacterized protein | binding, tyrosine fluorescence quenching |  | Stern-Volmer approximation |  | 5.8 ± 0.2 µM |
| O=C(O)Cn1ccc2ccccc2c1=O | Ubiquitin carboxyl-terminal hydrolase 39 ZnF-UBD domain |  |  |  |  | > 1000 µM |
| COC(=O)C[C@@H]1N=C(c2ccc(Cl)cc2)c2c(sc(C(=O)NCCOCCNC(=O)C[C@@H]3N=C(c4ccc(Cl)cc4)c4c(sc(C)c4C)-n4c(C)nnc43)c2C)-n2c(C)nnc21 | Bromodomain-containing protein 3, tandem BD1-BD2 (BRD3, Homo sapiens, UniProt Q15059) |  |  |  |  | 0.00011 µM |
| CC(=O)N1CCC[C@H]1C(=O)N[C@@H](CCC(N)=O)C(=O)N1CCC[C@H]1C(=O)N[C@H](C(=O)N[C@@H](CC(=O)O)C(=O)N[C@@H](CO)C(=O)N[C@@H](Cc1c[nH]c2ccccc12)C(=O)N[C@H](C(=O)O)C(C)C)C(C)C | affinity clamp fusion protein | binding, fluorescence titration |  | 70 min, with translation components |  | 0.125 ± 0.039 µM |
| O=C(O)CNc1ncnc2ccccc12 | Ubiquitin carboxyl-terminal hydrolase 39 ZnF-UBD domain |  |  |  |  | > 1000 µM |
| CC[C@H](C)N(CC(=O)N(CC(=O)N(CC(=O)N(CC(=O)N(CC(=O)N(CC(=O)N(CC(N)=O)[C@@H](C)c1ccccc1)[C@@H](C)c1ccccc1)[C@@H](C)CC)[C@@H](C)c1ccccc1)[C@@H](C)c1ccccc1)[C@@H](C)CC)C(=O)CNCCCCN | Advanced glycosylation end product-specific receptor, soluble extracellular domain (AGER, Homo sapiens, UniProt Q15109) | binding |  |  |  | 0.078 ± 0.017 µM |
| Nc1ncnc2c1ncn2[C@@H]1O[C@H](CO)[C@@H](O)[C@@H]1F | Inositol-tetrakisphosphate 1-kinase | binding |  |  |  | 0.55 ± 0.13 µM |
| CC[C@H](C)[C@@H]1NC(=O)[C@H](CCCNC(=N)N)NC(=O)[C@H](CCCNC(=N)N)NC(=O)[C@H](CCCCN)NC(=O)CNC(=O)[C@H](CCCNC(=N)N)NC(=O)[C@H]([C@@H](C)O)NC(=O)[C@H](CCCNC(=N)N)NC(=O)[C@H](C(C)C)NC(=O)[C@H](CCCNC(=N)N)NC(=O)[C@@H]2CCCN2C(=O)[C@H]2CCCN2C(=O)[C@H](CCCNC(=N)N)NC(=O)[C@H](CCCNC(=N)N)NC1=O | pre-miR-21 apical loop hairpin | binding, EMSA |  | added: yeast tRNA 250-fold excess |  | 0.2 µM |
| O=C(O)Cc1cccnc1 | USP20 ZnF-UBD domain |  |  |  |  | 707 µM |
| Oc1cc2c(cc1O)[C@@H]1c3ccc(O)c(O)c3OC[C@]1(O)C2 | Tyrosine-protein kinase SYK, tandem SH2 domains (SYK, Homo sapiens, UniProt P43405) | tandem SH2 domain binding, bio-layer interferometry |  |  |  | 28.1 µM |
| Nc1[nH]ncc1-c1ccccc1 | CYP2A6 | binding |  | 20 min, pH 7.4, purified protein, 2% DMSO |  | 4.4 µM |
| O=C(O)CC1Oc2ccccc2NC1=O (centres unmarked) | USP20 ZnF-UBD domain |  |  |  |  | 271 µM |
| CCCCCCCC/C=C\CCCCCCCC(=O)O | uncharacterized protein | binding, tyrosine fluorescence quenching |  | Stern-Volmer approximation |  | 3.3 ± 0.2 µM |
| O=C(O)Cc1cccc2cccnc12 | Ubiquitin carboxyl-terminal hydrolase 49, ZnF-UBD domain (USP49, Homo sapiens, UniProt Q70CQ1) |  |  |  |  | > 1000 µM |

| SMILES | target | test | system | conditions | scale | Kd |
| --- | --- | --- | --- | --- | --- | --- |
| C[C@H](Cc1ccccc1)Nc1ncnc2c1ncn2[C@@H]1O[C@H](CO)[C@@H](O)[C@H]1O | adenosine A1 receptor, sheep | competition binding | striatum membranes | first site, dimer model, added: 0.009 nM [3H]DPCPX |  | 2e-05 ± 1e-05 µM |
| CCCCCCCC(=O)OC[C@H](COP(=O)(O)O[C@@H]1[C@H](O)[C@H](O)[C@@H](OP(=O)(O)O)[C@H](OP(=O)(O)O)[C@H]1O)OC(=O)CCCCCCC | Kv7.2/Kv7.3(EEE) mutant channel | channel opening, activator, model fit of open probability |  | model 4, K3, E2 E3 fixed to WT |  | 241 µM |
| CC(C)(C)c1ccc(S(=O)(=O)Nc2ccc(-n3ccnc3)cc2)cc1 | CYP2A6 | binding |  | 20 min, pH 7.4, purified protein, 2% DMSO |  | 5.94 µM |
| c1ccc(COc2[nH]cnc3ncnc2-3)cc1 | Inositol-tetrakisphosphate 1-kinase | binding |  |  |  | 1.7 ± 0.7 µM |
| O=C(O)CNc1ncccn1 | Ubiquitin carboxyl-terminal hydrolase 39 ZnF-UBD domain |  |  |  |  | > 1000 µM |
| COc1cc2c(Nc3ccc(NC(=O)c4ccccc4)cc3)ncnc2cc1OCCCN1CCOCC1 | Mast/stem cell growth factor receptor Kit (KIT, Homo sapiens, UniProt P10721) | competition binding |  | 11-point threefold dilution |  | > 10 µM |
| Cn1ccnc1 | CYP2A6 | binding |  | 20 min, pH 7.4, purified protein, 2% DMSO |  | 189 µM |
| O=C(C[C@@H](C(F)F)n1ccc(F)n1)N1CCC(O)(Cn2cnc3c(cnn3-c3ccc(F)cc3)c2=O)CC1 | Ubiquitin carboxyl-terminal hydrolase 7 (USP7, Homo sapiens, UniProt Q93009, V517A) | isothermal titration calorimetry |  | USP7 V517A |  | 0.039 ± 0.012 µM |
| C=C1CCN([C@H](C)[C@](O)(Cn2cncn2)c2ccc(F)cc2F)CC1 | CYP2A6 | binding |  | 20 min, pH 7.4, purified protein, 2% DMSO |  | 113 µM |
| O=C(O)CSc1nnc(NC(=O)COc2ccccc2)s1 | Ubiquitin carboxyl-terminal hydrolase 39 ZnF-UBD domain |  |  |  |  | > 1000 µM |
| C[C@@H](c1nc(-c2ccc(C#N)cc2)cs1)[C@](O)(Cn1cncn1)c1cc(F)ccc1F | CYP2A6 | binding |  | 20 min, pH 7.4, purified protein, 2% DMSO |  | 195 µM |
| Nc1ncnc2c1ncn2[C@@H]1O[C@H](COP(=O)(O)OP(=O)(O)OP(=O)(O)O)[C@@H](O)[C@H]1O | Creatine kinase U-type, mitochondrial (CKMT1A, Homo sapiens, UniProt P12532, E265Q) | microscale thermophoresis |  | pH 8.5, E227Q mutant, added: creatine 10 mM |  | 4 ± 2 µM |
| Cn1ccnc1C(O)c1ccc(F)cc1 (centres unmarked) | CYP2A6 | binding |  | 20 min, pH 7.4, purified protein, 2% DMSO |  | 1380 µM |
| Nc1ncnc2c1ncn2[C@@H]1O[C@H](CO)C[C@H]1O | Inositol-tetrakisphosphate 1-kinase | binding |  |  |  | 2.6 ± 1 µM |
| NC(=O)c1cc(-n2c(CCC(=O)O)nc3ccccc32)cs1 | Ubiquitin carboxyl-terminal hydrolase 39 ZnF-UBD domain |  |  |  |  | > 1000 µM |
| Nc1nc(-c2ccc(Cl)c(S(N)(=O)=O)c2)cs1 | Carbonic anhydrase 12 (CA12, Homo sapiens, UniProt O43570) | thermal shift |  | pH 7.0, 25 °C |  | 0.33 µM |
| [H]/N=C(/N)NCC(=O)O | Sodium- and chloride-dependent taurine transporter (SLC6A6, Homo sapiens, UniProt P31641, F300A) | microscale thermophoresis |  | F300A mutant |  | no binding |

Repeated from above:
| SMILES | target | test | system | conditions | scale | Kd |
| --- | --- | --- | --- | --- | --- | --- |
| O=C(O)Cn1ccc2ccccc2c1=O | Ubiquitin carboxyl-terminal hydrolase 39 ZnF-UBD domain |  |  |  |  | > 1000 µM |
| Nc1[nH]ncc1-c1ccccc1 | CYP2A6 | binding |  | 20 min, pH 7.4, purified protein, 2% DMSO |  | 4.4 µM |
